Measurements gathered from unrelated publications.
A part holds a random share of what one study measured. Values joined by “and” are separate records of one study, mostly repeats; a detail may differ. Changes are numbered by the printed parent chain.

Sample 1
Target: CCND1, cyclin fold, Cln2 fusion (human)
Technique: yeast growth competition, sequencing
Matrix: yeast
Notes: strong parent motif
Relative to: not given
Reading: higher = stronger binding
Parent: viral docking peptide; KGVKRKLFAEDSS
| Substitution | normalised enrichment score |
| --- | --- |
| A9M | 1.23 |
| G2H | 1.42 |
| G2F | 0.95 |
| D11I | 0.441 |
| E10K | 0.085 |
| S12D | 2.72 |
| S12K | 0.88 |
| V3Q | 0.194 |

Sample 2
Target: UDP-N-acetylglucosamine--peptide N-acetylglucosaminyltransferase 110 kDa subunit (OGT, Homo sapiens, UniProt O15294)
Effect on: binding
Technique: phage display NGS
Form: peptide
Relative to: input library
Target sequence (O15294 1-1046): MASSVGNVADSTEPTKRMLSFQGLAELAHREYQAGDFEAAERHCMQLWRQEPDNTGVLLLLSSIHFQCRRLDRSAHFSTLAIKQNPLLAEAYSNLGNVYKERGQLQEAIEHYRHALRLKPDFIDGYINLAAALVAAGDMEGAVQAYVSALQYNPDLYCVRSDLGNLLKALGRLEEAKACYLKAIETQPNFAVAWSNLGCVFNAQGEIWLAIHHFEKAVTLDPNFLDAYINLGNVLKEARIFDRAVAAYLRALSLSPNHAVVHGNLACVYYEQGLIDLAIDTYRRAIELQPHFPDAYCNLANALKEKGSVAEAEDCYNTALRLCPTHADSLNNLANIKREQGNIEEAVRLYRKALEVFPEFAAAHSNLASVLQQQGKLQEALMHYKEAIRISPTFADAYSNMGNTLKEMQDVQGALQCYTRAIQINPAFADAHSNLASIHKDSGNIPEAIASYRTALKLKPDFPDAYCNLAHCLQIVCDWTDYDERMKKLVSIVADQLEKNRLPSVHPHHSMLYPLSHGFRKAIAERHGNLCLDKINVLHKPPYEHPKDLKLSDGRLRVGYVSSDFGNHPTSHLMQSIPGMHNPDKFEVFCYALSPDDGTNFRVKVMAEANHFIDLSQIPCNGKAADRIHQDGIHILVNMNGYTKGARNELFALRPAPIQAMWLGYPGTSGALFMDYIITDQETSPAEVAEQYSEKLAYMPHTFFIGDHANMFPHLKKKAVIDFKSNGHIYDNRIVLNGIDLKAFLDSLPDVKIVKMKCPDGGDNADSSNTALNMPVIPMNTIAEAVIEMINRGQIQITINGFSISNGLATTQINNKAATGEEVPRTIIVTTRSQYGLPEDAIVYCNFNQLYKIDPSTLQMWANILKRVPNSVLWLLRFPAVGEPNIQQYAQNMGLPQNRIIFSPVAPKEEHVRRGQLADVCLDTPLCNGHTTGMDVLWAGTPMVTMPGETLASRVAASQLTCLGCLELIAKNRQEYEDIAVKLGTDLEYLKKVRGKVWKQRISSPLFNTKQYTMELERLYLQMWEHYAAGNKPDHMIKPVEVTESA
| Sequence | minimum log2 enrichment ratio |
| --- | --- |
| QPEWRPQYQIRITSM | 2.43 |
| QPHHQHYFGVNHTQR | 3.19 |
| TKNAYSPQYQISYIF | 3.76 |
| HVNSRFWFHTQDHHP | 2.06 |
| TFMPQTHHRPHHSNH | 3.33 |
| HQQQHHEVSGHHLVR | 2.12 |
| DPQQYLPQYQIFLPI | 5.01 |
| DHHYHPHTWTWFTAP | 1.94 |

Further values, each from its own experiment
| Compound | tested on | assay | test system | setting | endpoint | result |
| --- | --- | --- | --- | --- | --- | --- |
| CCCCC/C=C\C/C=C\C/C=C\C/C=C\CCCC(=O)Nc1ccc(O)cc1 | Sarcocystis neurona | parasite growth | – | 10 µM, secondary screen | inhibition | -2.7% |
| O=C1CCC(N2Cc3c(ccc4c3OCC43CCN(Cc4ccccc4)CC3)C2=O)C(=O)N1 (stereo not drawn) | – | – | ICR mouse, male, plasma | oral, 3.0 mg/kg | oral bioavailability | 86.3% and 134% and 104% |

Some of these lines once more (sample 2):
| Sequence | minimum log2 enrichment ratio |
| --- | --- |
| DHHYHPHTWTWFTAP | 1.94 |
